Results pooled from the literature.
Lines come from different studies, so protocols differ.

| SMILES | assay | system | setting | scale | adverse event incidence |
| --- | --- | --- | --- | --- | --- |
| CC(C)n1c(Nc2cccnc2)nc2cnc(Nc3ccc(N4CCN(C)CC4)cc3)nc21 | measured: Hypercalcemia | healthy male subjects | oral, 100 mg, together with: itraconazole |  | 0% |
| Cc1ccc(Sc2ccccc2N2CCNCC2)c(C)c1 | TEAE abdominal distension | healthy adult men | oral, 5 mg single dose, 10 days |  | 0% |
| CC[C@H](C)CCCCC(=O)N[C@@H](CCN)C(=O)N[C@H](C(=O)N[C@@H](CCN)C(=O)N[C@H]1CCNC(=O)[C@H]([C@@H](C)O)NC(=O)[C@H](CCN)NC(=O)[C@H](CCN)NC(=O)[C@H](CC(C)C)NC(=O)[C@@H](Cc2ccccc2)NC(=O)[C@H](CCN)NC1=O)[C@@H](C)O | measured: infections and infestations | long-term IHD patients | intravenous, 0.75 mg/kg |  | 14.3% |
| C[C@H]1[C@H]2N(C(=O)CN(C)N2C(=O)NCc2ccccc2)[C@@H](Cc2ccc(OP(=O)(O)O)cc2)C(=O)N1Cc1cccc2cccnc12 | measured: Enterocolitis | HIV/HCV haemophilia cirrhosis | concentration not given, phase I trial |  | 20% |
| CC(=O)O[C@H]1C(=O)[C@@]2(C)[C@H]([C@H](OC(=O)c3ccccc3)[C@]3(O)C[C@H](OC(=O)[C@H](O)[C@@H](NC(=O)c4ccccc4)c4ccccc4)C(C)=C1C3(C)C)[C@]1(OC(C)=O)CO[C@@H]1C[C@@H]2O | measured: Rash | patients with advanced solid tumours | intravenous, dose not given, grade 1 and 2, possibly related to drug |  | 13% |
| NCCONC(=O)[C@@H]1CC[C@@H]2CN1C(=O)N2OS(=O)(=O)O | measured: leading to temporary interruption | healthy Chinese men | intravenous, 1 g, treatment-emergent |  | 0% |
| Cc1c(C(=O)O)ccc2c3n(nc12)[C@@H]1[C@H](C3)N(CC2CC2)[C@@]2(C(=O)Nc3cc(Cl)ccc32)[C@H]1c1cccc(Cl)c1F | phase Ia trial, measured: Vomiting | cancer patients | oral, dose not given |  | 64% |
| Cc1c(Cl)c(C)[n+]([O-])c(Cl)c1-c1noc(-c2cc(O)c(O)c([N+](=O)[O-])c2)n1 | measured: Mild severity | healthy Caucasian subjects | oral, 50 mg, 10 days |  | 33.3% |
| CN(C)C(=N)N=C(N)N |  | gestational diabetes women | dose not given, treated arm |  | 20% |
| Cc1nc(-c2ccc(OCC(C)C)c(C#N)c2)sc1C(=O)O |  | healthy Chinese subjects | oral, 40 mg, fed, both formulations |  | 25% |
| O=C1CCc2ccc(OCCCCN3CCN(c4cccc(Cl)c4Cl)CC3)cc2N1 | measured: Akathisia | genotyped patients, CYP2D6 normal metabolizers | dose not given, long-acting oral or depot |  | 1.7% |
| CC[C@H](C)[C@H](NC(=O)[C@H](Cc1ccccc1)NC(=O)[C@H](CCC(=O)O)NC(=O)[C@H](CCCCNC(=O)COCCOCCNC(=O)COCCOCCNC(=O)CC[C@H](NC(=O)CCCCCCCCCCCCCCCCC(=O)O)C(=O)O)NC(=O)[C@H](C)NC(=O)[C@H](C)NC(=O)[C@H](CCC(N)=O)NC(=O)CNC(=O)[C@H](CCC(=O)O)NC(=O)[C@H](CC(C)C)NC(=O)[C@H](Cc1ccc(O)cc1)NC(=O)[C@H](CO)NC(=O)[C@H](CO)NC(=O)[C@@H](NC(=O)[C@H](CC(=O)O)NC(=O)[C@H](CO)NC(=O)[C@@H](NC(=O)[C@H](Cc1ccccc1)NC(=O)[C@@H](NC(=O)CNC(=O)[C@H](CCC(=O)O)NC(=O)C(C)(C)NC(=O)[C@@H](N)Cc1cnc[nH]1)[C@@H](C)O)[C@@H](C)O)C(C)C)C(=O)N[C@@H](C)C(=O)N[C@@H](Cc1c[nH]c2ccccc12)C(=O)N[C@@H](CC(C)C)C(=O)N[C@H](C(=O)N[C@@H](CCCNC(=N)N)C(=O)NCC(=O)N[C@@H](CCCNC(=N)N)C(=O)NCC(=O)O)C(C)C | measured: Severe adverse events | type 2 diabetes patients | dose not given | baseline: subjects | 6.7% |
| FC(F)(F)c1ccc(CNc2ccc(Cc3c[nH]c4ncc(Cl)cc34)cn2)cn1 | measured: Hypertension | patients with advanced solid tumours | oral, dose not given, grade 3 and 4, possibly related to drug |  | 11% |
| CCO[C@H]1CCN(Cc2c(OC)cc(C)c3[nH]ccc23)[C@H](c2ccc(C(=O)O)cc2)C1 | measured: abdominal distension | PNH patients with active haemolysis | oral, 100 mg, extension phase |  | 0% |

Repeated from above:
| SMILES | assay | system | setting | scale | adverse event incidence |
| --- | --- | --- | --- | --- | --- |
| CC[C@H](C)[C@H](NC(=O)[C@H](Cc1ccccc1)NC(=O)[C@H](CCC(=O)O)NC(=O)[C@H](CCCCNC(=O)COCCOCCNC(=O)COCCOCCNC(=O)CC[C@H](NC(=O)CCCCCCCCCCCCCCCCC(=O)O)C(=O)O)NC(=O)[C@H](C)NC(=O)[C@H](C)NC(=O)[C@H](CCC(N)=O)NC(=O)CNC(=O)[C@H](CCC(=O)O)NC(=O)[C@H](CC(C)C)NC(=O)[C@H](Cc1ccc(O)cc1)NC(=O)[C@H](CO)NC(=O)[C@H](CO)NC(=O)[C@@H](NC(=O)[C@H](CC(=O)O)NC(=O)[C@H](CO)NC(=O)[C@@H](NC(=O)[C@H](Cc1ccccc1)NC(=O)[C@@H](NC(=O)CNC(=O)[C@H](CCC(=O)O)NC(=O)C(C)(C)NC(=O)[C@@H](N)Cc1cnc[nH]1)[C@@H](C)O)[C@@H](C)O)C(C)C)C(=O)N[C@@H](C)C(=O)N[C@@H](Cc1c[nH]c2ccccc12)C(=O)N[C@@H](CC(C)C)C(=O)N[C@H](C(=O)N[C@@H](CCCNC(=N)N)C(=O)NCC(=O)N[C@@H](CCCNC(=N)N)C(=O)NCC(=O)O)C(C)C | measured: Severe adverse events | type 2 diabetes patients | dose not given | baseline: subjects | 6.7% |
| FC(F)(F)c1ccc(CNc2ccc(Cc3c[nH]c4ncc(Cl)cc34)cn2)cn1 | measured: Hypertension | patients with advanced solid tumours | oral, dose not given, grade 3 and 4, possibly related to drug |  | 11% |
